Measurements pooled from the literature.
Compare with care: the assays were run in different laboratories. Values joined by “and” are separate records of one study, mostly repeats; a detail may differ. ± gives the spread as reported.
U2AF2: U2AF2 148-342 (Homo sapiens, UniProt P26368)
Chain of UniProt P26368 (whole entry, looked up): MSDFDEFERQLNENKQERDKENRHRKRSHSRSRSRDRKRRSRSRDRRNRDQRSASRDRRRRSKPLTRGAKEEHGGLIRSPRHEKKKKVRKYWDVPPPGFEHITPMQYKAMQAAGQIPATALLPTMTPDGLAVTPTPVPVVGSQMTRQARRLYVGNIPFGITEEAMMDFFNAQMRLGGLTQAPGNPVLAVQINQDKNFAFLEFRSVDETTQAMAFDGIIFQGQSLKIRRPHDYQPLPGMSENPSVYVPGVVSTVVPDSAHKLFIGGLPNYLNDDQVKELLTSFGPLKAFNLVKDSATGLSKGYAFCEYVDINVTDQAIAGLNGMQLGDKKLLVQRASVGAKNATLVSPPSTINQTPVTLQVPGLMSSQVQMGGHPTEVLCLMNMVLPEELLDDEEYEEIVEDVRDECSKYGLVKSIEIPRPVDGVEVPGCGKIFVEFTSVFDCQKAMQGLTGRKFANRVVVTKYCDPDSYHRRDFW
T1: itself; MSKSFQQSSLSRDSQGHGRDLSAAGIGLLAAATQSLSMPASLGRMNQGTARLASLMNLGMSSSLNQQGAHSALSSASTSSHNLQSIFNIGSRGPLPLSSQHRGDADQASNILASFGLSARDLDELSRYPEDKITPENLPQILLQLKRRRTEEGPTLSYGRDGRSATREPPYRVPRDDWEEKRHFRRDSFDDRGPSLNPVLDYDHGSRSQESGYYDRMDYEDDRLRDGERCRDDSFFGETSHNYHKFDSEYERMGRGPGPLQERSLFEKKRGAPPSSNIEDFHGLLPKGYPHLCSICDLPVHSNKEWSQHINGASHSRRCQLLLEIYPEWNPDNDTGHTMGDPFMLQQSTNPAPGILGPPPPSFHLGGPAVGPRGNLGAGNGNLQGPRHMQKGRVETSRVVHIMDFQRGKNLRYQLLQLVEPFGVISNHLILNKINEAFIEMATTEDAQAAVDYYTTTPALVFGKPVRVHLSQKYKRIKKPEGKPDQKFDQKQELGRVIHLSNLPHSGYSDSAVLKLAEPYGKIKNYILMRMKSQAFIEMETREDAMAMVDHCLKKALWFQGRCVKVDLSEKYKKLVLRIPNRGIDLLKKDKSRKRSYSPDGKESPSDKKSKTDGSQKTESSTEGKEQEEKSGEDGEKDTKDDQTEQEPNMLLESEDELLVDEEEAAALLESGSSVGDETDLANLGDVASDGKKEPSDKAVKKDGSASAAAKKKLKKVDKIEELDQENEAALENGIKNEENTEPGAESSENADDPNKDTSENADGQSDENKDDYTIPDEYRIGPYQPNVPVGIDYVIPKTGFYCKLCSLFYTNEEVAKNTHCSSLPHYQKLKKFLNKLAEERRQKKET
T2: itself; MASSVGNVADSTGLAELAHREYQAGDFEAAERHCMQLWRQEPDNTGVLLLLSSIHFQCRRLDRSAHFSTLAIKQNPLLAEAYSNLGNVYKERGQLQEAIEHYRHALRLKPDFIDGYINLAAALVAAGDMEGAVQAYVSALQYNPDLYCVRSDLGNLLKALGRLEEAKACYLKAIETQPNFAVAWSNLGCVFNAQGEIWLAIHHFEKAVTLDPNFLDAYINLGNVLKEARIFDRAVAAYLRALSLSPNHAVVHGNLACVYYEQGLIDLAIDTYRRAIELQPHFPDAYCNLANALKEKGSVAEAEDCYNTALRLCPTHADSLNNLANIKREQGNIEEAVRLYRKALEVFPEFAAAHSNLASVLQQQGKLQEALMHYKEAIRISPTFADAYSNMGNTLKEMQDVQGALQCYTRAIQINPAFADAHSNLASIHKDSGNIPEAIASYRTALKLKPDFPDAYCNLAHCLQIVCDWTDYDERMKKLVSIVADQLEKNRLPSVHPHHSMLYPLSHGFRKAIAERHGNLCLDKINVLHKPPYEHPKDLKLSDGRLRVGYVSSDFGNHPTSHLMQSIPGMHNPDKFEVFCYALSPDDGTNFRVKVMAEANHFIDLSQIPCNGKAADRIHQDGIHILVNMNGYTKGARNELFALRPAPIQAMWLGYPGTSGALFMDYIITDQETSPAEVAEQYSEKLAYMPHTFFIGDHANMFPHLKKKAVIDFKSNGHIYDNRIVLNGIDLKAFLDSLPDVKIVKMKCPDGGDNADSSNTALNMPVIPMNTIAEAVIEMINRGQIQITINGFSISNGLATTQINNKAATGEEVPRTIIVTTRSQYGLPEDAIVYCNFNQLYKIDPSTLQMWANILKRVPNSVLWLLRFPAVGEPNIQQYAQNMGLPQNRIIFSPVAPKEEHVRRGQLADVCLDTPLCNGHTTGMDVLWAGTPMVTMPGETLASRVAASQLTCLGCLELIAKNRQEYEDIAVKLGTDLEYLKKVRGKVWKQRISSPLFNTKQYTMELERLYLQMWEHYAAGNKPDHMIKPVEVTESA
B1: racE T25N/S192D/E180R/R186E (Dictyostelium discoideum, UniProt Q23862); sequence looked up; chain MSEDQGSGATRVKLVVVGDGAVGKNCLLICYAQNDFPVDYVPTVFENYTATRKRGNEDIKVHLWDTAGQEEYDRLRPLSYPGADVVLLCFSTISQSSYEAIRDKWAPEVNHYIPDVPSILVGTKIDLREQQHPDPNSGKFEPITADMGISMQKQIKAKKYLEVSAKTRQGLEEVFSAAIRIVLESEGMDKKDQDGSSSASGVPSGDKPTKGKAGKKKSGCIIL
B2: HNRNPA0 178-304 (Homo sapiens, UniProt Q13151); sequence looked up; chain DIYSGGGGGGSRSSRGGRGGRGRGGGRDQNGLSKGGGGGYNSYGGYGGGGGGGYNAYGGGGGGSSYGGSDYGNGFGGFGSYSQHQSSYGPMKSGGGGGGGGSSWGGRSNSGPYRGGYGGGGGYGGSS
B3: threonyl-tRNA synthetase, cytoplasmic (human); sequence looked up; chain MFEEKASSPSGKMGGEEKPIGAGEEKQKEGGKKKNKEGSGDGGRAELNPWPEYIYTRLEMYNILKAEHDSILAEKAEKDSKPIKVTLPDGKQVDAESWKTTPYQIACGISQGLADNTVIAKVNNVVWDLDRPLEEDCTLELLKFEDEEAQAVYWHSSAHIMGEAMERVYGGCLCYGPPIENGFYYDMYLEEGGVSSNDFSSLEALCKKIIKEKQAFERLEVKKETLLAMFKYNKFKCRILNEKVNTPTTTVYRCGPLIDLCRGPHVRHTGKIKALKIHKNSSTYWEGKADMETLQRIYGISFPDPKMLKEWEKFQEEAKNRDHRKIGRDQELYFFHELSPGSCFFLPKGAYIYNALIEFIRSEYRKRGFQEVVTPNIFNSRLWMTSGHWQHYSENMFSFEVEKELFALKPMNCPGHCLMFDHRPRSWRELPLRLADFGVLHRNELSGALTGLTRVRRFQQDDAHIFCAMEQIEDEIKGCLDFLRTVYSVFGFSFKLNLSTRPEKFLGDIEVWDQAEKQLENSLNEFGEKWELNSGDGAFYGPKIDIQIKDAIGRYHQCATIQLDFQLPIRFNLTYVSHDGDDKKRPVIVHRAILGSVERMIAILTENYGGKWPFWLSPRQVMVVPVGPTCDEYAQKVRQQFHDAKFMADIDLDPGCTLNKKIRNAQLAQYNFILVVGEKEKISGTVNIRTRDNKVHGERTISETIERLQQLKEFRSKQAEEEF
B4: histone H1t human; sequence looked up; chain SETVPAASASAGVAAMEKLPTKKRGRKPAGLISASRKVPNLSVSKLITEALSVSQERVGMSLVALKKALAAAGYDVEKNNSRIKLSLKSLVNKGILVQTRGTGASGSFKLSKKVIPKSTRSKAKKSVSAKTKKLVLSRDSKSPKTAKTNKRAKKPRATTPKTVRSGRKAKGAKGKQQQKSPVKARASKSKLTQHHEVNVRKATSKK
B5: racE T25N/S192D (Dictyostelium discoideum, UniProt Q23862); sequence looked up; chain MSEDQGSGATRVKLVVVGDGAVGKNCLLICYAQNDFPVDYVPTVFENYTATRKRGNEDIKVHLWDTAGQEEYDRLRPLSYPGADVVLLCFSTISQSSYEAIRDKWAPEVNHYIPDVPSILVGTKIDLREQQHPDPNSGKFEPITADMGISMQKQIKAKKYLEVSAKTRQGLEEVFSAAIEIVLESRGMDKKDQDGSSSASGVPSGDKPTKGKAGKKKSGCIIL
B6: S100A9 (Homo sapiens, UniProt P06702); chain MTCKMSQLERNIETIINTFHQYSVKLGHPDTLNQGEFKELVRKDLQNFLKKENKNEKVIEHIMEDLDTNADKQLSFEEFIMLMARLTWASHEKMHEGDEGPGHHHKPGLGEGTP
Chain of UniProt P0A9A6 (whole entry, looked up): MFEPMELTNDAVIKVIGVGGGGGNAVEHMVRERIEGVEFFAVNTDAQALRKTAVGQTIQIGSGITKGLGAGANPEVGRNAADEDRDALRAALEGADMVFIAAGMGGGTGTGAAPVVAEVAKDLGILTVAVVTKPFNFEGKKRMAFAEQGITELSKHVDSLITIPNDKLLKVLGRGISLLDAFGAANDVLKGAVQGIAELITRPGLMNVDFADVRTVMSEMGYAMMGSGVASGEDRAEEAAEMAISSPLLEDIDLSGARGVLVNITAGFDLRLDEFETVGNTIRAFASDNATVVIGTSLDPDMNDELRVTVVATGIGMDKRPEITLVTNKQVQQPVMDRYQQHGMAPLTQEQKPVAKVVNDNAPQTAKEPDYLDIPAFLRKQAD
Chain of UniProt P08588 (whole entry, looked up): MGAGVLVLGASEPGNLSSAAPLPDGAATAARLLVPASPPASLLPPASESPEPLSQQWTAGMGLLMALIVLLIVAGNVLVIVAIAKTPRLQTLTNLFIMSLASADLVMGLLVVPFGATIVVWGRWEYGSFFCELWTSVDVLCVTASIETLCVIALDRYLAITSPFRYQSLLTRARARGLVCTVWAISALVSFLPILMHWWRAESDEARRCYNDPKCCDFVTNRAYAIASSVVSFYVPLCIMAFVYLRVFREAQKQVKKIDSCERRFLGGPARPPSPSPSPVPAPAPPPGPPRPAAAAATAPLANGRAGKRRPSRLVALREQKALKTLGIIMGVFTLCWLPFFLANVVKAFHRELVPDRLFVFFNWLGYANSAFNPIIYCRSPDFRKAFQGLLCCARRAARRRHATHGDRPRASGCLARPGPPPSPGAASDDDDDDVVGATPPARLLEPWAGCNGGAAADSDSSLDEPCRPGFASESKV

Nur E63A (Streptomyces coelicolor)
Kd (itself; fluorescence polarisation): 15 ± 2 µM

B1 (racE T25N/S192D/E180R/R186E)
binding (itself; pull-down): binds

MATR3 (Homo sapiens, UniProt P43243)
sphere-to-worm transition concentration (T1, itself; RALS; full-length human): 0.2 µM

ftsZ (Escherichia coli, UniProt P0A9A6)
critical concentration (itself; filament formation, GTPase rate x-intercept): 0.52 µM

OGT (UniProt O15294-3)
Kd (T2, itself; TR-FRET; added: CoraFluor-labelled OGT 1 nM): 0.039 µM

Aβ43 fibrils
critical concentration (itself; HPLC after sedimentation; 37 °C): 0.2 µM and 0.115 µM

OCP fragment R27L (Synechocystis sp. PCC 6803)
Kd (itself; SAXS): < 14 µM

Pcdhgc3 EC1-EC4 (Mus musculus)
Kd (itself; AUC; wild type EC1-EC4): 115 µM

ADRB1 (Homo sapiens, UniProt P08588)
BRET50 (itself; BRET; wild type, no competitor; higher = weaker self-association): 0.36 GFP/Rluc ratio

B2 (HNRNPA0 178-304)
binding (itself; hydrogel trapping): binds

clcA C85A/H234C/L194A (Escherichia coli)
dimer decay half-life (itself; SEC; room temperature): 0.4 days

Notch ankyrin domain (Drosophila)
dimer Kd (itself; AUC; self-association model, poor fit): 61300 µM

CUUUUUAGU (ssRNA)
Kd (U2AF2; sequencing of bound RNA; RNA; motif only): 4.54 µM

nucleosome octamer with 601 DNA (Homo sapiens, UniProt P0C0S8)
kon (itself; FRET; unmodified nucleosome): 4280 M⁻¹ s⁻¹

clcA fragment C85A/H234C/I422A/L423A/I426A/L430A/L434A (Escherichia coli)
dimer decay half-life (itself; SEC; 12 days, 4 °C): 26 days

TOC34 ΔC (Pisum sativum)
koff (itself; fluorescence kinetics; 22 °C, added: mantGDP): 0.00045 s⁻¹

B3
log2 fold change (CYB5R4 knockout human cells; PP4 interaction, 3xFLAG-PP4C IP-MS; concentration not given; baseline: CYB5R4 KO over parental): -0.14

UUUUUUGAA (ssRNA)
Kd (U2AF2; sequencing of bound RNA; RNA; motif only): 14.8 µM

FLS2 monomeric (Arabidopsis thaliana, UniProt Q9FL28)
association dwell time (itself; VA-TIRFM, single-particle tracking; in cells, added: flg22): 11 s

CAMK2D F368A (Homo sapiens)
dimers (itself; mass photometry; 25 nM; higher = more dimers): 20%

B4 (histone H1t human)
log2 fold change (CYB5R4 knockout human cells; PP4 interaction, 3xFLAG-PP4C IP-MS; concentration not given; baseline: CYB5R4 KO over parental): -0.46

B5 (racE T25N/S192D)
binding (itself; pull-down): binds

B6 (S100A9)
Kd (itself; AUC): 170 ± 30 µM

Excerpt of the above:
B3
log2 fold change (CYB5R4 knockout human cells; PP4 interaction, 3xFLAG-PP4C IP-MS; concentration not given; baseline: CYB5R4 KO over parental): -0.14

UUUUUUGAA (ssRNA)
Kd (U2AF2; sequencing of bound RNA; RNA; motif only): 14.8 µM
